Results of several laboratories.
Compare with care: the assays were run in different laboratories. ≈ marks a conversion by molar mass, not a printed value.

Compound	target or system	test	test system	setting	scale	quantity	value
C[C@@](O)(C(F)F)[C@H](NC(=O)c1ccc(C#CC#CC2CC2)cc1)C(=O)NO	Citrobacter koseri	agar dilution	clinical isolates	–	–	MIC50	0.032 µg/mL (≈ 0.085 µM)
CCCCCc1cc(O)c2c(c1)OC(C)(C)C1CCC(C)=CC21 (stereo not drawn)	–	–	rabbit, α-chymotrypsin glaucoma model	topical, 50 µL of 0.5% w/v, 1 h	reference: baseline	intraocular pressure	89.2%
CC(=N)N1CC23C4CCC5C4C4C2CCC4C53C1	Influenza A virus	viral replication	MDCK, H3N2 A/HK/7/87	–	–	EC50	> 100 µM
COC[C@@H](NC(C)=O)C(=O)NCc1ccc(N=[N+]=[N-])cc1	voltage-gated sodium channel	–	CAD	40 µM, non-irradiated at -50 mV	–	channels in slow-inactivated state	50%
CCCCCCCCCCCCCC(=O)NCC(=O)N[C@@H](CCCNC(=N)N)C(=O)N[C@@H](Cc1c[nH]c2ccccc12)C(=O)N[C@@H](CCCCN)C(=O)N[C@H](C(=O)N[C@@H](Cc1ccccc1)C(=O)N[C@@H](CCCCN)C(=O)N[C@@H](CCCCN)C(=O)N[C@H](C(=O)N[C@@H](CCC(=O)O)C(=O)N[C@@H](CCCCN)C(=O)N[C@H](C(=O)NCC(=O)N[C@@H](CCC(N)=O)C(=O)N[C@@H](CC(N)=O)C(=O)N[C@H](C(=O)N[C@@H](CCCNC(=N)N)C(=O)N[C@@H](CC(=O)O)C(=O)NCC(=O)N[C@H](C(=O)N[C@H](C(=O)N[C@@H](CCCCN)C(=O)N[C@@H](C)C(=O)NCC(=O)N1CCC[C@H]1C(=O)N[C@@H](C)C(=O)N[C@H](C(=O)N[C@@H](C)C(=O)N[C@H](C(=O)N[C@H](C(=O)NCC(=O)N[C@@H](CCC(N)=O)C(=O)N[C@@H](C)C(=O)N[C@@H](C)C(=O)N[C@H](C(=O)N[C@H](C(N)=O)[C@@H](C)CC)[C@@H](C)O)C(C)C)C(C)C)C(C)C)C(C)C)[C@@H](C)CC)[C@@H](C)CC)C(C)C)[C@@H](C)CC)[C@@H](C)CC	K562/MDR	western blot	–	2 µM, 16 h	–	cleaved PARP	> 40%
CCN(Cc1ccccc1)C(=O)CCc1nc(CN2CCN(C(=O)Cc3ccc(OC)c(OC)c3)CC2)no1	–	mechanical withdrawal threshold, von Frey	mouse CCI model	20 mg/kg, dosing from day 11	–	onset day	11 days
CC/C=C\C/C=C\C/C=C\C/C=C\C/C=C\C/C=C\CCC(=O)Nc1ccn(C2OC(CO)C(O)C2(F)F)c(=O)n1 (stereo not drawn)	NCI-H226	NCI60 screen	–	–	–	CC50	39.2 µM
CC[C@H](C)[C@H](NC(=O)[C@@H](NC(=O)[C@H](CC(=O)O)NC(C)=O)[C@@H](C)O)C(=O)N[C@@H](CCCNC(=N)N)C(=O)N[C@@H](CC(C)C)C(=O)N[C@@H](CC(C)C)C(=O)N[C@@H](Cc1ccccc1)C(=O)N[C@@H](CCC(N)=O)C(=O)N[C@@H](CC(C)C)C(=O)N[C@@H](CCSC)C(=O)N[C@@H](CCCNC(=N)N)C(=O)N1CCC[C@H]1C(=O)N1CCC[C@H]1C(=O)N[C@@H](CC(N)=O)C(=O)N[C@@H](CCSC)C(=O)N[C@H](C(=O)N1CCC[C@H]1C(=O)N[C@@H](C)C(=O)N[C@H](C(=O)N[C@@H](CC(N)=O)C(=O)N[C@@H](C)C(N)=O)C(C)C)[C@@H](C)O	–	–	PBMC CD4 T cells, HLA-DR1 placebo children	dose not given	–	antigen-experienced tetramer+ cells	0 to 8%
CC(C)C[C@H](NC(=O)[C@H](CCCNC(=N)N)NC(=O)[C@@H](Cc1ccccc1)NC(=O)CN)C(=O)N[C@@H](CC(N)=O)C(=O)N[C@@H](CO)C(=O)N[C@@H](C)C(=O)N[C@@H](CO)C(=O)N[C@@H](CCCNC(=N)N)C(=O)N[C@H](C(=O)N[C@@H](C)C(=O)N[C@@H](Cc1c[nH]cn1)C(=O)NCC(=O)N[C@@H](Cc1ccc(O)cc1)C(N)=O)C(C)C	ATRP receptor 2 (Aplysia californica)	IP1 accumulation, agonist	–	–	reference: compound over all-L-ATRP	potency ratio	~200 fold
N=C(N)N1CC23C4CCC5C4C4C2CCC4C53C1	Influenza A virus	viral replication	MDCK, H3N2 A/HK/7/87	–	–	EC50	> 100 µM
CN(C)CCc1c[nH]c2ccc(Br)cc12	–	qPCR, item: Arc, Egr-1, Egr-2, Egr-3	mouse, prefrontal cortex	ip, 10 mg/kg, 30 min	–	mRNA level	increased
CCCCCCCCC(=O)NCc1ccc(O)c(OC)c1	mouse mAb 1-F12	antibody binding, indirect competitive ELISA	–	–	–	IC50	252 ng/mL (≈ 0.857 µM)
